# Experimental data from different studies.
# A part holds a random share of what one study measured. Positions count from the first letter of the parent shown.

# Sample 1
# Target: ABI1, truncated, D143A, DHFR fusion (Arabidopsis thaliana)
# Method: DHFR PCA, deep sequencing
# Sample: yeast
# Setting: methotrexate growth selection, single substitutions
# Added: (+)-ABA 0.39 µM
# Reference: wild-type fitted maximum
# Direction: higher = stronger binding
# Starting sequence: PYL1, truncated, DHFR fusion (Arabidopsis thaliana); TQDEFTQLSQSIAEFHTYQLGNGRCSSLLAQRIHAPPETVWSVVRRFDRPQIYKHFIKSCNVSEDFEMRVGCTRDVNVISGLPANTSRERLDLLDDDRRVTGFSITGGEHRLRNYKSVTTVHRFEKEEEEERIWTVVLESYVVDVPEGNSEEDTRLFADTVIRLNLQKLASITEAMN; partner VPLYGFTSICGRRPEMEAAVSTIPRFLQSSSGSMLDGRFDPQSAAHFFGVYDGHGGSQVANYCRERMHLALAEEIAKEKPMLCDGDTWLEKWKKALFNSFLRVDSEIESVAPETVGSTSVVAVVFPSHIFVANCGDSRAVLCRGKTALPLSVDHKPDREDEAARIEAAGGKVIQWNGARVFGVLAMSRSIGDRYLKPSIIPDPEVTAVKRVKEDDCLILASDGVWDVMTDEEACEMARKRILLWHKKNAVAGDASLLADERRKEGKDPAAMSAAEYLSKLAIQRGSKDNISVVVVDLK
Variant,relative binding score
M176F,-6.08%
E139N,-7.54%
F5L,58.4%
N114E,-12.7%
I105V,30.3%
F56L,15.5%
A13T,37%
F15G,0.63%
G102W,13.9%
R98M,16.2%
E147K,24.3%
T101K,-1.78%
S117N,-1.94%
V44R,-0.786%

# Sample 2
# Target: Sal-like protein 4, full length isoform A (SALL4, Homo sapiens, UniProt Q9UJQ4, residues 1-1053)
# UniProt Q9UJQ4, sequence (whole entry, looked up): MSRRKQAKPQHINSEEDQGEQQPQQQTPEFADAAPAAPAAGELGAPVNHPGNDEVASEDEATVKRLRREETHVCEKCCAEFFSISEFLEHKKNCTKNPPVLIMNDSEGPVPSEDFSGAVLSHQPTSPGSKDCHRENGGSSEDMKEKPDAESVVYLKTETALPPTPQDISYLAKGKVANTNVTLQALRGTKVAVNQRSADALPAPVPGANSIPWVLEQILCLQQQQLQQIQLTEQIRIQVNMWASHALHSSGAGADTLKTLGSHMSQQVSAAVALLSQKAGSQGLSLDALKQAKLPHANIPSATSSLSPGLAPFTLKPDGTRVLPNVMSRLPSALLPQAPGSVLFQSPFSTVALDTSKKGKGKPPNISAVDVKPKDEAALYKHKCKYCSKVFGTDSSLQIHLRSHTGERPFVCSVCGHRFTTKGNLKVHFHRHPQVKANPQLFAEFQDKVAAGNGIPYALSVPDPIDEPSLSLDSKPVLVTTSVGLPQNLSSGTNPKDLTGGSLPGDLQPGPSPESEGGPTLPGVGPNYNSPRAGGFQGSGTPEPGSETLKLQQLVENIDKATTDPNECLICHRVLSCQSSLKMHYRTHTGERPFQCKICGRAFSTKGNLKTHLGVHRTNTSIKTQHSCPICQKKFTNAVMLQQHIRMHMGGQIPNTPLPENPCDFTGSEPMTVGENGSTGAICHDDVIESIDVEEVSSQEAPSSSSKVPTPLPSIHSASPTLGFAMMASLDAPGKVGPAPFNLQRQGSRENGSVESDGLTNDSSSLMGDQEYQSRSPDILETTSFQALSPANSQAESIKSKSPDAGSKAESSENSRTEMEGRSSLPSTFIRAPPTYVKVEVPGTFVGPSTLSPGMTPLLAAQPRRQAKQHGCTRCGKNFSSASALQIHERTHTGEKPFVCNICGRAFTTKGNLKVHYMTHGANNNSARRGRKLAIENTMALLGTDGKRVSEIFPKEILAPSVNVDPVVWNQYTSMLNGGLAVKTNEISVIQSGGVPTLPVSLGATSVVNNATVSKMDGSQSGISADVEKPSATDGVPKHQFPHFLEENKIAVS
# Method: universal PBM
# Molecule type: double-stranded DNA, one strand shown
# Sample: in vitro
# Tested at: 600 nM
# Setting: 8-mer, flanks averaged, mean of replicates
# Direction: higher = stronger binding
Sequence,E-score
TAGCCATA,0.173
CTCTTAAA,0.184
AGACGTTA,0.0787
AGGCAGGG,-0.156
AGCTAAAC,-0.0317
CCTACGCA,-0.164
CTGTGATA,0.134
TCCTTGAA,0.121
AGACTCCT,-0.157
AACCTCCC,-0.112
GCAGTCCA,-0.0268
CATGTACA,0.142
TACTTGAA,0.281
CTCGCCCC,-0.365
CTTTTGAC,0.115
ATCGGATA,0.144
TGGTAGAA,0.000155

# Sample 3
# Target: Histone acetyltransferase KAT6A, both winged helices, GST fusion (KAT6A, Homo sapiens, UniProt Q92794, residues 1-181)
# Method: protein binding microarray
# Molecule type: double-stranded DNA, one strand shown
# Sample: in vitro
# Tested at: not given
# Setting: 8-mer, flanks averaged, mean of 2 arrays, mostly near background
# Reference: not given
# Direction: higher = stronger binding
# Target sequence (chain): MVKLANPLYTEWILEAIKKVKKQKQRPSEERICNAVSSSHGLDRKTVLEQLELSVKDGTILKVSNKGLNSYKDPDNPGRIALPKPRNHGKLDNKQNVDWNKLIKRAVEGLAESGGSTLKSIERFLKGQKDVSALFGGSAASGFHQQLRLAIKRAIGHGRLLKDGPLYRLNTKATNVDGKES
Sequence,E-score
AGAAGTAG,-0.191
ACAGGGCA,-0.196
AGCCGTCA,0.282
CCCGGAGC,0.0988
CGTTCCTA,-0.0786
GTCAGTGA,-0.0649
GCATGACA,-0.0512
AGAACCAC,-0.173
ACAGGCAC,-0.0718
CCGTGACA,0.239
ATAATCCG,0.0295
CTCAGCCA,-0.176
CACCCGCA,0.141
AACCCGTT,0.211
AAGTTGCC,0.136
GAACGGGC,0.163
ATTGTTGG,-0.101
AACCGGAT,0.0243

# Sample 4
# Target: Interferon regulatory factor 3, full length, phosphomimetic (IRF3, Homo sapiens, UniProt Q14653, residues 1-427, S386D/S396D/S398D/S402D/T404D/S405D)
# Method: protein-binding microarray
# Molecule type: double-stranded DNA, one strand shown
# Sample: in vitro
# Tested at: 2540 nM top
# Setting: 60-bp whole probe
# Added: salmon DNA 0.4 mg/ml
# Reference: random background probes
# Direction: higher = stronger binding
# All sequences stand within: GCCTAGCAC … GTCTTGATTCGCTTGACGCTGCTG
# Construct (chain): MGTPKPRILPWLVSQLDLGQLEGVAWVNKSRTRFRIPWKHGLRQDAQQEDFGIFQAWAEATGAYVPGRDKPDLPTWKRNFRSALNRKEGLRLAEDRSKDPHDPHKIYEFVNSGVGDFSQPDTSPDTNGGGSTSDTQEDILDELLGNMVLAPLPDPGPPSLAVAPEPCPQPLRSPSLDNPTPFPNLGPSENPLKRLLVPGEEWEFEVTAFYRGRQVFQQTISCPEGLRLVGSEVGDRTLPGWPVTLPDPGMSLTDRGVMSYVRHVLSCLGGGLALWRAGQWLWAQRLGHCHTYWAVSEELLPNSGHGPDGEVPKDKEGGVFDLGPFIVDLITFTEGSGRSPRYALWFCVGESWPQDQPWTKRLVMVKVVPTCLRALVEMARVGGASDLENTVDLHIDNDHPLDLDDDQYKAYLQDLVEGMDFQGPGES
Sequence,fitted relative affinity [z-score]
TCATAAAATGGACACTGTACTGTGCTA,-0.0241
CAACCTATAGGTTCAACGACGTGCTAG,0.605
GGCGGTCTCGGTTTCGGGACGTGCTAG,3.52
TTAGGACTGCTTATCCTATAGTGCTAG,-0.0411
TTAGATTCCAGTTTCGATCAGTGCTAG,4.27
TAAGGACTGCTTATCCTTTAGTGCTAG,0.04
TTTGCTTTCATTTATTTACTGTGCTAG,2.07
TTAGAATTGGGGACTGGATTAGTGCTA,-0.629
CTAGGACTGGGTATCGGTTAGTGCTAG,0.441
TTAGATGTCGGGACTGGATTAGTGCTA,-0.233
TTGCTGAAATAATACTGTTAGTGCTAG,0.631
GACGATCTCAGTCTCGATACGTGCTAG,1.05
GACGGTCACGGACTGGGGACGTGCTAG,-0.758
TCAACTTTCCAAAACATACTGTGCTAG,2.91
TTAGGTATCCTACTGCTTAAGTGCTAG,2.72
GACGGACTGTGTATCGGGACGTGCTAG,0.136
AGTTTTTCATTTTTTTTCATGTGCTAG,2.06

# Sample 5
# Target: RNA binding protein fox-1 homolog 2, RRM domain, GST-SBP tag (RBFOX2, Homo sapiens, UniProt O43251-10, residues 100-194)
# Method: RNA Bind-n-Seq
# Molecule type: RNA
# Sample: in vitro
# Tested at: 365 nM
# Setting: natural RNA segment, single round, ends assumed
# Reference: no-protein control
# Direction: higher = stronger binding
Sequence,RBNS enrichment (R)
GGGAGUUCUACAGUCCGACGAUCAUUCUUAUCAGCUAAAAUUAUCAAGUGGGCCAUUCCCAGAUGAAAAUUUCUAAUCUCAUGAGGUCUGUGGUGCUGCAGAAUUUAUACUGCAAUGUGGACUGUUUAGAAUUUGGAAUUCUCGGGUGCCAA,0.5
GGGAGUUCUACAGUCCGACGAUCCCUGGGGUUUGAGAAAGCCUGGUGGAGGAGUGUGGUGGUGUGAGUGGAGACUGGCUGGCAUUCCUCCAGCACUCUGCAGACUUCUUCCUGGGCCCGAGGCUAUGGAGCCUUGGAAUUCUCGGGUGCCAA,1.24
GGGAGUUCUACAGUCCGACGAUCUGUGUUGGAGACACUUCUGAAGGGCAAGUGAACAGACAUACUGUGAAGUGGCUCAACAGGAGGAGCCUGAGUUGUGGGGUCUAUGGAUGGCAACCAGCUGAUUCUGUACAUGGAAUUCUCGGGUGCCAA,0.894
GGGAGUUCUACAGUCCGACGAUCCUUCAAUUGGUACUUUAUUCUUUGCUGCUGUUUUUGUAUAAAAUGACCUAUCCCACGUUUUUGCAUGAAUUUAUAGCAGGAAAAAUCAAGGGAUUUCCUAUGGAAGUCCUUGGAAUUCUCGGGUGCCAA,0.566
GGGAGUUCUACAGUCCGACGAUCGUAGAGAAAAGCACACUUGUAGGAUAAGUGAAAUGGAUACUACAUCUUUAAACAGUAUUUCAUUGCCUGUGUAUGGAAAAACCAUUUGAAGUGUACCUGUGUACAUAACUUGGAAUUCUCGGGUGCCAA,2.1
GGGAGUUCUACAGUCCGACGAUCCUUGGAAAGCUAGGAAGGCUGCAUUGUGUGGUGGCAGGCUCCCGAGACUCGUGUUCUGAAGGAUACUCUCCUCCAUCACCCCUGCACCUUCCUCCGACCUGUGUAGGGUGUGGAAUUCUCGGGUGCCAA,0.966
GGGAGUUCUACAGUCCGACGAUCAUUAGAUACUUGUCACUGCCUAUACCUGCAGCUGAACUGAAUGGUACUUCGUAUGUUAAUAGUUGUUCUGAUAAAUCAUGCAAUUAAAGUAAAGUGAUGCAACAUCUUGUUGGAAUUCUCGGGUGCCAA,0.507
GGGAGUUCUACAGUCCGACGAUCAACUCUGCGCUCUAGUACUGCUGUUAAGAUACACAACUUGUUUCUUAGUUCAUAUAAUCUCGGGAUACACACACACACACACAUAUAUAUACACACACAUACGUAUACACUGGAAUUCUCGGGUGCCAA,0.873
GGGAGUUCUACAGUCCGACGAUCGUGAGAUGGGUGUCUGGGAGUGGUGCCAUGGAAGUGGCGAUUCUGCUUCUUAUAAAUACCUCCAAAGUGCCACCUGUUUCAACAGAAACGCUCAGAUUGCUAGCUAGGCAUGGAAUUCUCGGGUGCCAA,0.525
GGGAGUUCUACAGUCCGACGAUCUGCCAGAACUUACGCAUCCAAUGUGGGUUGUCACUUGUUAUUCCCAAGUACUAUUAUUCCAUACUACUAUAUUCUUCCAAAUAUUUGGAACACUCUUAGAAUUCCCAUUUUGGAAUUCUCGGGUGCCAA,1.22
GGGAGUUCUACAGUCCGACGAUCUUCCUAGCUUUCAGCCAUUAGAAACUCUUUUAAUAGUUCCUUUUGAGUUGUGAGCUCUUCUUCUGUAGCCCUGAAGGGACACUGUAUUCUGUAUGAAUGCAUGGCAUGAGUGGAAUUCUCGGGUGCCAA,3.92
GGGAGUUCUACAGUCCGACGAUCUUCUCUUCUCAUUCCUGUUUUCAUUGAUUUCCCACAUGUAGUCCUUUUGCUCAGGAAGUCUUUGGGGAAAUUAAGGAUCUUUGAAGCUCUGAAAUAGGUGAUCAGGUUAGUGGAAUUCUCGGGUGCCAA,0.403
